Experimental data collected from several papers.
Compare with care: the assays were run in different laboratories. ± gives the spread as reported.

With `O=C(NCCSc1ccc2c(/C=C/c3ccccn3)n[nH]c2c1)Nc1ccc(F)c(F)c1` the GI50 was 360 nM (Ba/F3 TEL-VEGFR1; cell growth, CCK-8).
For `CCN1CCN(Cc2ccc(C(=O)Nc3ccc(C)c(NCc4cnc5[nH]ccc5c4OC)c3)cc2C(F)(F)F)CC1`, the GI50 was 680 nM (U2OS overexpressing DDR1 G707A; cell growth).
`CNS(=O)(=O)Nc1nccc(Cc2c(C)c3ccc(Oc4ncccc4F)cc3oc2=O)c1F` gave an IC50 of 10.6 nM (ASPC1; cell viability; 7 days).
`O=C(C[Se]C(=O)c1ccccc1Nc1ccccc1)Nc1cccc(C(F)(F)F)c1` gave a GI50 of 990 nM (UACC-2557; NCI60 five-dose screen).
With `Fc1cncc(-c2ccc3[nH]c4ncnc(N[C@H]5CC[C@H](N6CCOCC6)CC5)c4c3c2)c1` the GI50 was 3100 nM (OCI-Ly3; cell growth or viability, WST-1; 72 h).
`[Cl-].[Cl-].[Ru+2].c1ccc(-c2ccccn2)nc1.c1ccc(-c2ccccn2)nc1.c1ccc2cc3nc4c5cccnc5c5ncccc5c4nc3cc2c1` gave a GI50 of 42 nM (SK-MEL-28; sulforhodamine B; normoxia, added: white visible light).
With `O=C(N/N=C/c1ccc(C[n+]2ccccc2)cc1)c1cc(C(=O)N/N=C/c2ccc(C[n+]3ccccc3)cc2)ncn1` the ΔTm was 0.3 ± 0.1 °C (hp2 hairpin duplex DNA; FRET melting; 1 µM, added: ds26 10 µM).
For `O=C(Nc1cccc(Sc2ccc3c(/C=C/c4ccccn4)n[nH]c3c2)c1)c1ccco1`, the GI50 was 4200 nM (Ba/F3 TEL-VEGFR1; cell growth, CCK-8).
With `C[n+]1ccc(/C=N/NC(=O)c2cccc(C(=O)N/N=C/c3cc[n+](C)cc3)n2)cc1` the ΔTm was 0 ± 0.4 °C (hp2 hairpin duplex DNA; FRET melting; 1 µM, added: ds26 10 µM).
For `CCC1C(COc2nccc3cc(C(N)=O)c(OC)cc23)NC(=O)C1F` (stereo not drawn), the GI50 was over 10000 nM (OCI-Ly3; cell growth or viability, WST-1; 72 h).
`CC(=O)N1c2ccc(-c3ccc(CNC(=O)c4cn5cc(-c6cnc(N)nc6)nc(N6CCOCC6)c5n4)cc3)cc2CC[C@@H]1C` has a GI50 of under 20 nM (OPM-2; cell growth, ViaLight ATP; 5 d).
`CN1CCN(Cc2ccc(C(=O)Nc3ccc4c(/C=C/c5ccccn5)n[nH]c4c3)cc2)CC1` gave a GI50 of 550 nM (Ba/F3 TEL-VEGFR1; cell growth, CCK-8).
With `CC1CCC2C(C)C(OC(=O)CCC(=O)OCCOCCOCCOC(=O)N3CCC(Nc4ccc(S(=O)(=O)NC(=O)c5ccc(N6CCN(CC7=C(c8ccc(Cl)cc8)CC(C)(C)CC7)CC6)cc5Oc5cnc6[nH]ccc6c5)cc4[N+](=O)[O-])CC3)OC3OC4(C)CCC1C32OO4` (stereo not drawn) the GI50 was 690 nM (U-937; cell growth or viability).
`O=C(Nc1ccc(Cl)c(C(F)(F)F)c1)C1(C(=O)Nc2ccc3c(/C=C/c4ccccn4)n[nH]c3c2)CC1` has a GI50 of over 10000 nM (Ba/F3 TEL-VEGFR1; cell growth, CCK-8).
The GI50 of `CCN(C(=O)c1cc(F)ccc1Oc1nncnc1N1CCC2(C1)CN([C@H](CCCN(C)CCOC)C(C)C)C2)C(C)C` is reported as over 10000 nM (SU-DHL-6; cell growth or viability; 7 days).

Some of these lines once more:
For `O=C(Nc1cccc(Sc2ccc3c(/C=C/c4ccccn4)n[nH]c3c2)c1)c1ccco1`, the GI50 was 4200 nM (Ba/F3 TEL-VEGFR1; cell growth, CCK-8).
With `C[n+]1ccc(/C=N/NC(=O)c2cccc(C(=O)N/N=C/c3cc[n+](C)cc3)n2)cc1` the ΔTm was 0 ± 0.4 °C (hp2 hairpin duplex DNA; FRET melting; 1 µM, added: ds26 10 µM).
